Measurements gathered from unrelated publications.
Numbered parts are unrelated; each lists some results of a single study.

Block 1
Target: Interferon regulatory factor 7, full length, phosphomimetic (IRF7, Homo sapiens, UniProt Q92985, residues 1-503, S471D/S472D/S475D/S476D/S477D/S483D/S484D/S487D)
Sequence of UniProt Q92985 (whole entry, unmodified, looked up): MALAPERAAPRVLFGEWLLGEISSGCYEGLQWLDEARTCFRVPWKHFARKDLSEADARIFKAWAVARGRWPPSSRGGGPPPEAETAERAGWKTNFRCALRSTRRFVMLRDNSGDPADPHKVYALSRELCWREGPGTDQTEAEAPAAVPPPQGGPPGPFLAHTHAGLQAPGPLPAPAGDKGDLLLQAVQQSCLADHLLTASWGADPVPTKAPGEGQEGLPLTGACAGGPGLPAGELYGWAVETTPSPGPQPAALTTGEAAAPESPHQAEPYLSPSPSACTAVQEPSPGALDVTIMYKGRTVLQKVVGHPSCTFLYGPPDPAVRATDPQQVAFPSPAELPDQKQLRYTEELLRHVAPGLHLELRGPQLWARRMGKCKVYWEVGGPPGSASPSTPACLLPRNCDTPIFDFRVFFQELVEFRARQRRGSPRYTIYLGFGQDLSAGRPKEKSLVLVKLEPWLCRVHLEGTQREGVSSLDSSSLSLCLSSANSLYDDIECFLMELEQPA
Technique: protein-binding microarray
Form: double-stranded DNA, one strand shown
Matrix: in vitro
Concentration: 2200 nM top
Notes: 60-bp whole probe
Added: salmon DNA 0.4 mg/ml
Baseline: random background probes
Reading: higher = stronger binding
Shared flanks, not repeated: GCCTAGCAC … GTCTTGATTCGCTTGACGCTGCTG
| Sequence | fitted relative affinity [z-score] |
| --- | --- |
| GACGGTATCGGGTTTCGGGCCGTGCTA | 0.661 |
| TTAGATATCAGTATCCATTAGTGCTAG | 0.519 |
| GACGGTCTCCTACAGCTGACGTGCTAG | 0.771 |
| TTAGGTTTCACTTTCCAAAAGTGCTAG | 7.01 |
| ATAAAAATCTTTGTTGGAGGGGTGCTA | -0.679 |
| TGGGTTGTAGGTTTTCTGAAGGTGCTA | 0.284 |
| GTAGATATCGGGTTTCGATTAGTGCTA | 2.71 |
| GACGCTTCCAGTTTCGAGACGTGCTAG | 4.42 |
| TTAGATTTCCGGTTTCGATTAGTGCTA | 6.67 |
| TTAGATTTCAGTTTCGGTTAGTGCTAG | 9.78 |
| TTAGGTATCCTTCTACTTTAGTGCTAG | 0.779 |
| GACGATATCGGATATCGAGACGTGCTA | 0.233 |
| TGCTTCCTCTTTTTTGTTCCGTGCTAG | 3.07 |
| TACGGACTGGACTATCGGGACGTGCTA | -0.708 |
| GACGGTTTCGGTGCCGGGACGTGCTAG | 3.05 |
| TTTGGTTTCCTTTTCCTTTAGTGCTAG | 8.71 |
| GACGGTTTCCTACTGATGACGTGCTAG | 1.82 |
| GACGGTATCCTACTGTTGACGTGCTAG | 0.559 |
| GACGGTTTCGACACTGCGGACGTGCTA | 2.62 |
| GACGGGCTCCTTTTCCTGACGTGCTAG | 0.203 |
| GACGGTTTCGATTTCGGGACGTGCTAG | 11.5 |
| TTAGGTATCGGACTGGGTCAGTGCTAG | -0.146 |
| TGAACTTCGGCCTCTAGGTTTGTGCTA | -0.0795 |
| GACGGACTGGACTATAGGGACGTGCTA | -0.999 |
| TCATCAATCATTTTAGTACTGTGCTAG | 0.979 |

Block 2
Target: RING finger protein unkempt homolog, zinc fingers 1-6, GST-SBP tag (UNK, Homo sapiens, UniProt Q9C0B0, residues 30-357)
Technique: RNA Bind-n-Seq
Form: RNA
Matrix: in vitro
Concentration: not given
Notes: RNA with constant flanks, human-mouse chimeric sites, ends assumed
Baseline: input RNA pool
Reading: higher = stronger binding
Shared flanks, not repeated: GGGAGUUCUACAGUCCGACGAUC … CAACAGAGGAUUGAGCAUCA
Residues (chain): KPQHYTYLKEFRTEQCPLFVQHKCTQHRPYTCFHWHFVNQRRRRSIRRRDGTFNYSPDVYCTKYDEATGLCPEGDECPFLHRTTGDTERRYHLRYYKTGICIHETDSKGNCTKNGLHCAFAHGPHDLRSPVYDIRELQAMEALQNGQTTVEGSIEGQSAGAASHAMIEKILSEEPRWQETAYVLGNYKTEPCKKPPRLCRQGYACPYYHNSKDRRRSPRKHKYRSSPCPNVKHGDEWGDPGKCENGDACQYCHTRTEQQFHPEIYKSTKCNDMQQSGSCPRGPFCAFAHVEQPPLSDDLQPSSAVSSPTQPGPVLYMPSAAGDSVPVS
| Sequence | bound/input enrichment |
| --- | --- |
| CAGCCUCAGAGCCCAGACUUCCUGGAUAUUACCAACCCCAAAGCCGUAUUAGAAAAUGCAUUGAGAAACUUCGCCUGUCUGACGACUGGAGAUGUGAUUGCCAUCAACUACAAUGAGAAG | 0.621 ratio |
| CAGCCUCAGAGCCCAGACUUCCUGGAUAUUACCAACCCUAAAGCGGUAUUAGAAAACGCAUUGAGAAACUUCGCCUGUCUGACGACUGGGGAUGUGAUUGCUAUCAACUACAAUGAGAAG | 0.343 ratio |
| GAAAGAGAACUAAAGCAACUAAUAGAGAAGAGGAUUGGCAAAGAGAAUUUCAUAGAGAAACUAGGAUUUAUUAGCAAACAUGAGUUAUAUUCCAGAGCGUCUCAGAAACCCCAGCCAAAC | 5.93 ratio |
| CUGUUUUACAGCCACACCAAUCUUGGCAUGUAUUAAGGAAAAAAAAAAUCCCUGUUCAAGUAGUUUUUCCACCUAUCAGCACUGAGUAAAUGCCAUAACUCCGCGGAAAUGGUCUAAAUA | 0.182 ratio |
| GCGGCAGAAUCAUGGAGGACAUAAUGCACUUGCCCAGAGCGCGCGUCAACGCCGGCAUGUUACCACAGUAUAUCGACCGGCCCGUGUGCUUCGUGGGGAAGCUGGAAAAGAUUCAUCCCA | 0.0934 ratio |
| UUGCUACUGACUCCCUGGGUUAAAUUCCUGUGGGAAUCAUACAGGCAGUGUUUGGACCUUCUUCGAAACAAUUCUAGAGUAGAGCGCCUGUACCAUGAUAUCGCCCAACAAGCUUUCAAA | 0.165 ratio |
| CCCCACAACCAUUUGCAAGAGUUGGAAUGCACUCUCUUUUUUAAAAAACAUGUAUACAUUUUAGGGCUGUAGAUUUAUUUUCCUGGUUUUGUUUUUCAUUGCUGACUUUUGAGCACAGAA | 1.36 ratio |
| AAAUCAUGUGUGUCAAAUAUUGAAAGUGCUUUAUCUACACUCCAGUAUGUAAGCAGUAUAGUAGUUUCUUUAGAGAAUAGGUCAGCCAUUGUAAAGUACAAUGCAAGCUUAGUCACUCCA | 10.3 ratio |
| UUCAAAGAAAAGGGCAGCUGUGUCAUUUCAUAAGUAACUCUGGGGGAGGGAAAUUCUAACUAGUUUGUUUUAGUUUUCCCAAAUGAAGCCAAAGUGUGUGUUGAAGAACUGAGAAAAAAU | 0.758 ratio |
| AUCAAGUACUUUGGGGACAUCAUUAGUGUGGGACAGAGACUGUUGCAAGGAGCUCGGAUCUUAGGGAUUCCUGUUAUCAUAACGGAACAAUACCCCAAAGGACUUGGCAGCACCGUUCAA | 0.151 ratio |
| UGUGAACUGUCUCUUGAGAUCUAAAAACAAGAUGACUUUUCCUGGCACAUAUUUCAAAGCAAAGACUUUGUUGCCUGCUGCUUAUUGUCUAAUUUACAGGGAUAUUUAAUUUUGUAAGGU | 0.129 ratio |

Block 3
Target: Sal-like protein 4, full length isoform A (SALL4, Homo sapiens, UniProt Q9UJQ4, residues 1-1053)
Sequence of UniProt Q9UJQ4 (whole entry, looked up): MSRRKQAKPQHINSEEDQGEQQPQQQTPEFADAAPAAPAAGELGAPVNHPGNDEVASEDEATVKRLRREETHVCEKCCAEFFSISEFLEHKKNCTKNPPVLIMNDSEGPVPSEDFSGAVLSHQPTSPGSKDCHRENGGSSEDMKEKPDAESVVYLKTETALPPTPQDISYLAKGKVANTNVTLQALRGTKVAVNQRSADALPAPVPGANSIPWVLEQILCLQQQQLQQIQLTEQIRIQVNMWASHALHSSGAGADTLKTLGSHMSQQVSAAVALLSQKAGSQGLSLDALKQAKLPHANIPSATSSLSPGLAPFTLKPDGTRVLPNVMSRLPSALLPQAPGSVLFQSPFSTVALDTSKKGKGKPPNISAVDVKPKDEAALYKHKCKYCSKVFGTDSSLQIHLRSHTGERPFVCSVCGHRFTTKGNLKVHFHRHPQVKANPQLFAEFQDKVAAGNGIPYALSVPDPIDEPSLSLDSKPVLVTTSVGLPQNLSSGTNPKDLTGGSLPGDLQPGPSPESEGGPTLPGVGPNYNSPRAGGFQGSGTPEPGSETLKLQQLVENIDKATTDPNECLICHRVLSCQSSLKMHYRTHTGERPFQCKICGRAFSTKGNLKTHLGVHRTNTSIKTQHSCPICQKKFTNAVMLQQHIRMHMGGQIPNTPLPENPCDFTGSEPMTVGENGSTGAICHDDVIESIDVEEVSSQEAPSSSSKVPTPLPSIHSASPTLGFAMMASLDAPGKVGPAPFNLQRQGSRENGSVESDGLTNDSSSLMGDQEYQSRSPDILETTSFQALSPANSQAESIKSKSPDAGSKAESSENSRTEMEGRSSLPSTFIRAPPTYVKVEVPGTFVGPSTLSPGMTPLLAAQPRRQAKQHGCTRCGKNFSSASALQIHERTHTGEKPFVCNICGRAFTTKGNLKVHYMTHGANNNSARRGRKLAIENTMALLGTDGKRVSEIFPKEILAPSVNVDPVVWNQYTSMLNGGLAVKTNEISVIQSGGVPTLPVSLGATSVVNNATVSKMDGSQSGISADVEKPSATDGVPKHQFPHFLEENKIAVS
Technique: universal PBM
Form: double-stranded DNA, one strand shown
Matrix: in vitro
Concentration: 600 nM
Notes: 8-mer, flanks averaged, mean of replicates
Reading: higher = stronger binding
| Sequence | E-score |
| --- | --- |
| ATTTCTGA | 0.101 |
| CGTCAAGC | -0.16 |
| CTGTACAC | 0.059 |
| ACTTTGAA | 0.199 |
| CGACCAAA | -0.0602 |
| CCTTACCG | -0.158 |
| AGTGCTGA | -0.151 |
| AACCTGTC | -0.0893 |
| CGCACCCA | -0.302 |
| AACTCTTG | -0.00949 |
| ACACCACC | -0.165 |
| ATCGCCAC | -0.0984 |
| AACGTACA | 0.129 |
| GGACAGAC | -0.261 |
| CCCCATCA | -0.0943 |
| ATACAAGA | 0.224 |

Block 4
Target: Ras GTPase-activating protein-binding protein 1, C-terminal RGG region (G3BP1, Homo sapiens, UniProt Q13283)
Sequence of UniProt Q13283 (whole entry, looked up): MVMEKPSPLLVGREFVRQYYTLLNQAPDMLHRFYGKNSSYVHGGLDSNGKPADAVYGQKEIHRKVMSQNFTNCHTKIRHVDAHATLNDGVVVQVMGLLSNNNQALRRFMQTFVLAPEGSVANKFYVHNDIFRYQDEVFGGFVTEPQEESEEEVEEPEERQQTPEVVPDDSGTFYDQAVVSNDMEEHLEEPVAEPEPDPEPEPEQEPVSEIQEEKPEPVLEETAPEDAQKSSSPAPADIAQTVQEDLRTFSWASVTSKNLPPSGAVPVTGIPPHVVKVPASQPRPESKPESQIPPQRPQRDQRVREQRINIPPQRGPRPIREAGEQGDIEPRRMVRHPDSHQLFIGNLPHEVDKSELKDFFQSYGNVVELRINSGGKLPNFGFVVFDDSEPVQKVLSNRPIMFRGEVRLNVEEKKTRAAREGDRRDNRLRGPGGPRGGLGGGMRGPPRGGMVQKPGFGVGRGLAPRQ
Technique: RNA Bind-n-Seq
Form: RNA
Matrix: in vitro
Concentration: 1 µM
Notes: whole 134-nt RNA, ends assumed
Added: 150 mM KCl
Baseline: input library
Reading: higher = stronger binding
Shared flanks, not repeated: GGGAGUUCUACAGUCCGACGAUC … UGGAAUUCUCGGGUGUCAAGG
| Sequence | log2 enrichment |
| --- | --- |
| ACCAUGCAGGUGGGCAUCUUUGGGAAGUGGGGCAAGGGGGGGAUAGGGAGGGGGGUAACACUUUGGGAACAGGUGGUCAAAGGUCGUUUC | -0.844 |
| GUCCUGUGCUACACAUCGUAUGUACCGAAUCGGCCCCCGGGGCCCCCGGGGCCCCCGGAAAGUAUUAUGUUACGCCGUUCGGAUCUGCAC | -1.17 |
| AGUCCUGUGCUACACAUCGUAUGUACCGAAUCGGGAAAAAGGGAAAGGGUUUUUGGGAAAGUAUUAUGUUACGCCGUUCGGAUCUGCACU | 0.527 |
| UCAAGUCCUGUGCUACACAUCGUAUGUACCGAAUCGGGGCCGGGCCGGGGCCGGGAAAGUAUUAUGUUACGCCGUUCGGAUCUGCACUUC | -0.778 |
| CUCAAGUCCUGUGCUACACAUCGUAUGUACCGAAUCGGGGUUGGUUGGUUGGGAAAGUAUUAUGUUACGCCGUUCGGAUCUGCACUUCCA | -0.857 |
| CAAGUCCUGUGCUACACAUCGUAUGUACCGAAUCGGCCCGGGCCCGGGCCCGGGGAAAGUAUUAUGUUACGCCGUUCGGAUCUGCACUUC | -1.75 |
| UGGCCCUGGUGGCAUGCGGGGAGGAAGAGGUGGCCUCAUGGAUCGUGGUGGUCCCGGUGGACUGUUCAGAGGUGGCCGUGGUGGAGACAG | 1.87 |
| GUCCUGUGCUACACAUCGUAUGUACCGAAUCGGGGCCCCCGGCCCCCGGGCCCCCGGGAAAGUAUUAUGUUACGCCGUUCGGAUCUGCAC | -1.48 |
| AGUCCUGUGCUACACAUCGUAUGUACCGAAUCGGAAAAAAAGGUUUUUGGUUUUUGGAAAGUAUUAUGUUACGCCGUUCGGAUCUGCACU | -2.21 |
| UCAAGUCCUGUGCUACACAUCGUAUGUACCGAAUCGGAAAGGAAAAAAAGGAGGAAAGUAUUAUGUUACGCCGUUCGGAUCUGCACUUCC | -1.42 |
| ACCAUGCAGGUGGGCAUCUUUGGGAAGUGGGGCAAGGGGGGGAUAGGGAGGGGGGUAACACUUUGGGAACAGGUGGUCCCAGGUGGUUUC | 1.83 |
| UGGGAGGUGGAUUUUGUUUAUUUUUUUAGCUCAUUUCCAGGGGUGGGAAUUUUUUUUUAAUUUGUGUCAUGAAUAAAGUUGUUUUUGAAA | 3.33 |
| AAGUCCUGUGCUACACAUCGUAUGUACCGAAUCGGGCCCCCGGCCCCCGGCCCCCGGAAAGUAUUAUGUUACGCCGUUCGGAUCUGCACU | -1.61 |
| AAAGCAAGAGAUGGCUAGUGCUUCAUCCAGCCAAAGAGGUAUGCUUGUUGCUUAAUUAAACCUUAAAGGUAACUUUGAGUUACUCCAGUA | -1.61 |

For quick reference, copied from above (block 4):
| Sequence | log2 enrichment |
| --- | --- |
| AGUCCUGUGCUACACAUCGUAUGUACCGAAUCGGGAAAAAGGGAAAGGGUUUUUGGGAAAGUAUUAUGUUACGCCGUUCGGAUCUGCACU | 0.527 |
| UCAAGUCCUGUGCUACACAUCGUAUGUACCGAAUCGGGGCCGGGCCGGGGCCGGGAAAGUAUUAUGUUACGCCGUUCGGAUCUGCACUUC | -0.778 |
| CUCAAGUCCUGUGCUACACAUCGUAUGUACCGAAUCGGGGUUGGUUGGUUGGGAAAGUAUUAUGUUACGCCGUUCGGAUCUGCACUUCCA | -0.857 |
| CAAGUCCUGUGCUACACAUCGUAUGUACCGAAUCGGCCCGGGCCCGGGCCCGGGGAAAGUAUUAUGUUACGCCGUUCGGAUCUGCACUUC | -1.75 |
| UGGCCCUGGUGGCAUGCGGGGAGGAAGAGGUGGCCUCAUGGAUCGUGGUGGUCCCGGUGGACUGUUCAGAGGUGGCCGUGGUGGAGACAG | 1.87 |
| GUCCUGUGCUACACAUCGUAUGUACCGAAUCGGGGCCCCCGGCCCCCGGGCCCCCGGGAAAGUAUUAUGUUACGCCGUUCGGAUCUGCAC | -1.48 |
| AGUCCUGUGCUACACAUCGUAUGUACCGAAUCGGAAAAAAAGGUUUUUGGUUUUUGGAAAGUAUUAUGUUACGCCGUUCGGAUCUGCACU | -2.21 |
| UCAAGUCCUGUGCUACACAUCGUAUGUACCGAAUCGGAAAGGAAAAAAAGGAGGAAAGUAUUAUGUUACGCCGUUCGGAUCUGCACUUCC | -1.42 |
